Published values from different studies.
Compare with care: the assays were run in different laboratories. ± gives the spread as reported.

Chains of the proteins cited; added tags and fusions are not shown. Residues count along the entry.
UniProt P31421, 19-872 limits assumed: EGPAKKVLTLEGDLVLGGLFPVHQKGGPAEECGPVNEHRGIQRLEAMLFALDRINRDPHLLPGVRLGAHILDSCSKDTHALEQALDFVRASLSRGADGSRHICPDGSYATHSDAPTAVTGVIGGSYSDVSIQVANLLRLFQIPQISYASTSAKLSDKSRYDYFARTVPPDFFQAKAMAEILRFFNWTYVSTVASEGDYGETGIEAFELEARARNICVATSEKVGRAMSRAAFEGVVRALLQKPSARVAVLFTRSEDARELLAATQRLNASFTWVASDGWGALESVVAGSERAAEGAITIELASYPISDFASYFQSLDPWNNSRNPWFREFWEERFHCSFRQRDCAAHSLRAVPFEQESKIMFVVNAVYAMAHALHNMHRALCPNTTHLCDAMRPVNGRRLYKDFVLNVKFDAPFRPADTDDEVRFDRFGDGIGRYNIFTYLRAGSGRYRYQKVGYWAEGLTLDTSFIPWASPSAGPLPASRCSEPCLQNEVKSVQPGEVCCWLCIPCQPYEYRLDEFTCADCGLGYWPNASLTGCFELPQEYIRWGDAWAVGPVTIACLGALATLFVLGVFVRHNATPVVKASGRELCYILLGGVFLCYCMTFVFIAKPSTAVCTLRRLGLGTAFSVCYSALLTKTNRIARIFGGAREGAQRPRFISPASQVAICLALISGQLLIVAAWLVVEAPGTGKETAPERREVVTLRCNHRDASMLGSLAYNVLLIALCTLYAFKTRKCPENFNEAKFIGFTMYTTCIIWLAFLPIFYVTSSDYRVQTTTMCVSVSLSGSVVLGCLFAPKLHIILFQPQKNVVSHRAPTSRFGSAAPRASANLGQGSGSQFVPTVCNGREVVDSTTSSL
UniProt P50750, whole entry: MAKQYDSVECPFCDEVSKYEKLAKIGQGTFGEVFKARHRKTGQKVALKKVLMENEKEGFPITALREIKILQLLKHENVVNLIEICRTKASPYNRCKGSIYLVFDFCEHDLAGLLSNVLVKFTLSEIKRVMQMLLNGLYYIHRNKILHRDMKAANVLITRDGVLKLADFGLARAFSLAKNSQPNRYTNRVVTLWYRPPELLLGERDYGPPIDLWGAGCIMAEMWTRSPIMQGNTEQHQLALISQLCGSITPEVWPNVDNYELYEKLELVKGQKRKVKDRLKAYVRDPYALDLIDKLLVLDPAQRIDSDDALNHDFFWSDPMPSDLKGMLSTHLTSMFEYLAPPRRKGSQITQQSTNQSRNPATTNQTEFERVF
UniProt O95835, whole entry: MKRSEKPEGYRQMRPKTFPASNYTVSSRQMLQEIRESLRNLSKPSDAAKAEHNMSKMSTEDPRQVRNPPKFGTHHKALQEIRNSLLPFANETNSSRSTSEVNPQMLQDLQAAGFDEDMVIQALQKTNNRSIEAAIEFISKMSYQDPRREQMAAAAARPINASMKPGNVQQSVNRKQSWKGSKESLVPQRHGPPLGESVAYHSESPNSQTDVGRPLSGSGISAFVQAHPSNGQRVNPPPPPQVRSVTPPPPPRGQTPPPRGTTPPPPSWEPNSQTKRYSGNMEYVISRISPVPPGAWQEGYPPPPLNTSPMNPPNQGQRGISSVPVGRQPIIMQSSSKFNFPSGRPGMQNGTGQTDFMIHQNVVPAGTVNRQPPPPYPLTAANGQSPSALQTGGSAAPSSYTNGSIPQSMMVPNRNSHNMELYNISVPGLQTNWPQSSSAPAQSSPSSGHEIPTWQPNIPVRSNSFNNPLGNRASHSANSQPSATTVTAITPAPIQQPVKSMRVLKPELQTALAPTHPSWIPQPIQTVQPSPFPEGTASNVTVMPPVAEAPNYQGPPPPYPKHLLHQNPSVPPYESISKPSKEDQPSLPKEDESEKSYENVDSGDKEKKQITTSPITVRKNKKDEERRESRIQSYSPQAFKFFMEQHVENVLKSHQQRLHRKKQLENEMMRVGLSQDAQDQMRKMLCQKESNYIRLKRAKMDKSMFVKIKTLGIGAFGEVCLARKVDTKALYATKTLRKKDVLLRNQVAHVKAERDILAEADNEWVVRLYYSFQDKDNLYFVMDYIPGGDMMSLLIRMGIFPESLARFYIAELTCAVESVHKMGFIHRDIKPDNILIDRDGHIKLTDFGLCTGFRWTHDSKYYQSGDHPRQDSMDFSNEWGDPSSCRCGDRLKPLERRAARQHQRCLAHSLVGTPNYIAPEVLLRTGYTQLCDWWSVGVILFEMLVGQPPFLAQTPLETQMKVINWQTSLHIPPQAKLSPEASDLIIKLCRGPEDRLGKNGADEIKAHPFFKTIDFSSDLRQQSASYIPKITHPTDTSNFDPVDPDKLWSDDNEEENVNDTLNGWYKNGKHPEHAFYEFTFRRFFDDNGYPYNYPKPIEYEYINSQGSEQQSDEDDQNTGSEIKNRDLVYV
UniProt P28072, whole entry, looked up: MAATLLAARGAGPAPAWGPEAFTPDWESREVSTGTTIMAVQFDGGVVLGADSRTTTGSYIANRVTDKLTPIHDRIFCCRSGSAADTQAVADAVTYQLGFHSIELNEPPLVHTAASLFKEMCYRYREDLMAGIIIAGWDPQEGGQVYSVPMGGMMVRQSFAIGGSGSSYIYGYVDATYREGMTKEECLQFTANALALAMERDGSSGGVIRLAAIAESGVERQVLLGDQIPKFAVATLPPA
UniProt Q99436, whole entry, looked up: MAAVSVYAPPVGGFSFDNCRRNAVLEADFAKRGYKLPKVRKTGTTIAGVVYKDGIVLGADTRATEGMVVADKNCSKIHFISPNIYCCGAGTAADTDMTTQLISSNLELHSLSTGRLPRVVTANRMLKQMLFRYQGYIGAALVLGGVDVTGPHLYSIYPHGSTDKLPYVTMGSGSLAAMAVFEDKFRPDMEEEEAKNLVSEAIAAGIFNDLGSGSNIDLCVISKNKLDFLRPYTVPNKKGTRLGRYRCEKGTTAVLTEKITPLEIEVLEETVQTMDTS
UniProt P03372, whole entry: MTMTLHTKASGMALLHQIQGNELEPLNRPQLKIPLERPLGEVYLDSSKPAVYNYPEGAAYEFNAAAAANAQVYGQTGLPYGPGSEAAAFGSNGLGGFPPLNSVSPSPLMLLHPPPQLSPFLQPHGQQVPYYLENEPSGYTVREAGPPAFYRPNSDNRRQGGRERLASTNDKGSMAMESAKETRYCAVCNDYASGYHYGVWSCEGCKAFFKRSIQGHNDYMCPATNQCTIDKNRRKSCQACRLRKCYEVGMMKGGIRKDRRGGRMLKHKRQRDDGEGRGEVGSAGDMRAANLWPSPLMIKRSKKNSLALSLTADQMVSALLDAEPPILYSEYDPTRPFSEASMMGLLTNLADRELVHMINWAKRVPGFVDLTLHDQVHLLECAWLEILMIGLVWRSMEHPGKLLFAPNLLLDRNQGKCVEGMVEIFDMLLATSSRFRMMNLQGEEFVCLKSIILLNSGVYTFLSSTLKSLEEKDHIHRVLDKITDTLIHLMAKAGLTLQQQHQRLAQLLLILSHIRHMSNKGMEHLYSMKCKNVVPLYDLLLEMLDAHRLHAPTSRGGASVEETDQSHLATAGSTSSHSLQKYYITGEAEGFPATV
UniProt O08808, 748-1175 limits assumed: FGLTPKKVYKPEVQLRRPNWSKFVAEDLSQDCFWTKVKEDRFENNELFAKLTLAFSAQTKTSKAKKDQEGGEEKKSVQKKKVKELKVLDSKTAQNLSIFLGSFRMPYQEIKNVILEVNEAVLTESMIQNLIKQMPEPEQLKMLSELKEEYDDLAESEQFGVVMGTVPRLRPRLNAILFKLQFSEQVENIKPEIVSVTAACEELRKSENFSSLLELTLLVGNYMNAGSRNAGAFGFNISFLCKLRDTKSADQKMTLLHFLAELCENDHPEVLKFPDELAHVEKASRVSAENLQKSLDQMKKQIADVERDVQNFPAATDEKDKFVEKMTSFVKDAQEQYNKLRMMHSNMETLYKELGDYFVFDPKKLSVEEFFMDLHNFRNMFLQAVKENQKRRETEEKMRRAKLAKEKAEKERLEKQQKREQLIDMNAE
UniProt A4HTR0, 1-443: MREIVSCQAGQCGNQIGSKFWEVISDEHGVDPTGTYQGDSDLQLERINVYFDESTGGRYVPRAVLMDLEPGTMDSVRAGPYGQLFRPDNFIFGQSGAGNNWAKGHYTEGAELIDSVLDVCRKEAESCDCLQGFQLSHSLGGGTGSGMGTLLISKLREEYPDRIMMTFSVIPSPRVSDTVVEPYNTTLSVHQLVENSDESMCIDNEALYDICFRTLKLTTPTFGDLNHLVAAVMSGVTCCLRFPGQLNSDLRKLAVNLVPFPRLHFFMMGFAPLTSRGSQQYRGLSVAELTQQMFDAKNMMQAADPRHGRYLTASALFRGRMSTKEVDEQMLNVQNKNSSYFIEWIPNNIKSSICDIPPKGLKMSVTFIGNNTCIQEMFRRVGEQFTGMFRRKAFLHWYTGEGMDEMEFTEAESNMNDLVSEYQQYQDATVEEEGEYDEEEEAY
UniProt P26038, whole entry, looked up: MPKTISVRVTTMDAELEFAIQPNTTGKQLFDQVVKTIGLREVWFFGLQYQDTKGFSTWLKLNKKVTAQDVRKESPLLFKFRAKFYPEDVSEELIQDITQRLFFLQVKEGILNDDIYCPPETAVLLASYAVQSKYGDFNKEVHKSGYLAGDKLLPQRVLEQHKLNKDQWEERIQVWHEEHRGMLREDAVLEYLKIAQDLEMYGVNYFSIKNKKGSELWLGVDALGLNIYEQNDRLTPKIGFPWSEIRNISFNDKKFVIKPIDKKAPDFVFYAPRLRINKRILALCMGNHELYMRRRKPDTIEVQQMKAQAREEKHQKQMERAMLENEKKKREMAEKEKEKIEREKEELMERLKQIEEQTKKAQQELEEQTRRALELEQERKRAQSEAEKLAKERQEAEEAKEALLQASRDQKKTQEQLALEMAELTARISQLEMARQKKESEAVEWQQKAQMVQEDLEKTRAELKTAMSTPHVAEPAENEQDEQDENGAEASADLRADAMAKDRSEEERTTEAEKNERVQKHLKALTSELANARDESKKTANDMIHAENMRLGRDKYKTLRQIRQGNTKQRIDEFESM
UniProt P08631, whole entry: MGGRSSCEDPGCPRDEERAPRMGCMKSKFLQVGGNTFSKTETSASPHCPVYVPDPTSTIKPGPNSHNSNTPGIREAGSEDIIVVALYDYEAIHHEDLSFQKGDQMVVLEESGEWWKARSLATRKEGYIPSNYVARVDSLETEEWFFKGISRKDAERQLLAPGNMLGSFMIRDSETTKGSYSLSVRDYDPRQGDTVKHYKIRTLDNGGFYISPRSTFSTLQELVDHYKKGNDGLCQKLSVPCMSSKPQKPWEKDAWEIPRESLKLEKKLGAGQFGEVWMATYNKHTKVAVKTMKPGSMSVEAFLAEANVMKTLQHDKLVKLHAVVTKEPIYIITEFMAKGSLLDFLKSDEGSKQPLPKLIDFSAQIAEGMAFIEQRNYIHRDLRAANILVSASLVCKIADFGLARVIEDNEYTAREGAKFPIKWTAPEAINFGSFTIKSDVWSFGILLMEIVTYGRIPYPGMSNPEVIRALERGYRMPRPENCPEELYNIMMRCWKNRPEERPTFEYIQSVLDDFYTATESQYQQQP
UniProt P05067, whole entry, looked up: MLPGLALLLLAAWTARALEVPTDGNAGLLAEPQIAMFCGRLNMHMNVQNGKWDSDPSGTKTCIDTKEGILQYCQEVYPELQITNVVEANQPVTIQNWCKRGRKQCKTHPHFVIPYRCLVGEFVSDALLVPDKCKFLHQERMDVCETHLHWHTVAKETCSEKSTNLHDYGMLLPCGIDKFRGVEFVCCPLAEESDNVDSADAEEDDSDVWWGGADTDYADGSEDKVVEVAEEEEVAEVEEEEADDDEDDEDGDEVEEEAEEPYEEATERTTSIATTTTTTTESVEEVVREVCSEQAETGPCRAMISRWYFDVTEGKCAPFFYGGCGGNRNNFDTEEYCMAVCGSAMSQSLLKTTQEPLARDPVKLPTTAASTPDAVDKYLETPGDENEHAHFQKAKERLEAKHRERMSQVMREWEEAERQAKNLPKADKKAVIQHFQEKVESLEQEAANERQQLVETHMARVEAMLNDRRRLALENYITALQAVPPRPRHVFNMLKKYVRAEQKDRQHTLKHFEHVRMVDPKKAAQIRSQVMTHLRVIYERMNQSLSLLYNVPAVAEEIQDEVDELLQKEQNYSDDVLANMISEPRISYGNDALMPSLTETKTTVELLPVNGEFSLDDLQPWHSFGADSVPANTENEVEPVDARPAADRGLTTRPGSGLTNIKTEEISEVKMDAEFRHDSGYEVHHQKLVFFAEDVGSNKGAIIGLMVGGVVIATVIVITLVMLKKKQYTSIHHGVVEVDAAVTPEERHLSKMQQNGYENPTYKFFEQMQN
UniProt Q9BV23, whole entry: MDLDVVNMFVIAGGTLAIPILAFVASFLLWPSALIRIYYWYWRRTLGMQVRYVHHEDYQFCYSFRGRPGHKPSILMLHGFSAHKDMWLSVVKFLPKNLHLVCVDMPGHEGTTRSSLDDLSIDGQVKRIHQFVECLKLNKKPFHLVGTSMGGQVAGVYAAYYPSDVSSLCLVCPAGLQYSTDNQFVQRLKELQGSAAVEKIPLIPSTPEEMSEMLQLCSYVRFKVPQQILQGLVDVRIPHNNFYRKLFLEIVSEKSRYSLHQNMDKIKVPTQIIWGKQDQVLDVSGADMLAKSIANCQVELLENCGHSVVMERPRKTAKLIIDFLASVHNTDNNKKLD

CNc1ccc(-c2nc(C)c(CSc3ccc(OCC(=O)O)c(C)c3)s2)cc1 — result for CC50: “not toxic” (HEK293T; 18 h).
NC(=O)c1cn(-c2ccc(F)cc2)c2ccc(CCc3ccncc3)cc2c1=O has an IC50 of 471 nM (Metabotropic glutamate receptor 2 (Grm2, Rattus norvegicus, UniProt P31421); calcium mobilization, negative allosteric modulator).
CC(C)n1nnc(-c2cc(O)cc(Nc3ncnn4ccc(CN5CCC(N)CC5)c34)c2)n1: “total brain concentration” 0.15 ± 0.03 µM (mouse, brain; subcutaneous, 60 mg/kg, 90 min).
With CN1CC[C@H](c2c(O)cc(O)c3c(=O)cc(-c4cnccc4Cl)oc23)[C@H](O)C1 the IC50 was 13.5 nM (Cyclin-dependent kinase 9, with cyclin T1 (CDK9, Homo sapiens, UniProt P50750); inhibitor; with cyclin T1, GST-CTD substrate).
The IC50 of Clc1ccc(C2(c3ccc(-c4cccnc4)cc3)CCNCC2)cc1 is reported as > 10000 nM (Serine/threonine-protein kinase LATS1 (LATS1, Homo sapiens, UniProt O95835); kinase activity, inhibitor, radiometric HotSpot; added: ATP 10 µM).
For CCN(CCc1ccc(Cl)c(Cl)c1)C[C@H](O)COc1ccc(NS(C)(=O)=O)cc1, the IC50 was 21 nM (Glutamate NMDA receptor; Grin1/Grin2b (Grin1/Grin2b, Rattus norvegicus, UniProt P35439+Q00960); pH 6.9).
O=C(Cn1c(-c2nccs2)nc2ccccc21)Nc1ccc(Cl)cc1 gave an IC50 of ≥ 40000 nM (Inosine-5'-monophosphate dehydrogenase 2 (IMPDH2, Homo sapiens, UniProt P12268); enzyme activity, inhibitor; lower bound).
CN1CCC[C@@H]1C(=O)N[C@@H](Cc1ccc(-c2ccccn2)cc1)B(O)O gave an IC50 of > 10000 nM (PSMB6/PSMB7, caspase-like site (Homo sapiens, UniProt P28072+Q99436); β1c enzyme activity, inhibitor; added: Z-LLE-AMC).
For O=C(CCCn1c(=S)[nH]c2ccccc2c1=O)N1CCN(c2ccccc2C(F)(F)F)CC1, the IC50 was 11900 nM (Estrogen receptor (ESR1, Homo sapiens, UniProt P03372); reporter gene, antagonist; HEC-1 cells transfected with ERα; added: estradiol 1 nM).
CNc1ccc(Br)cc1-c1nc2ccccc2[nH]c1=O gave an IC50 of > 50000 nM (Protein diaphanous homolog 1, FH2 domain (Diaph1, Mus musculus, UniProt O08808); actin assembly, inhibitor, pyrene-actin polymerization).
The IC50 of CC1=CC(C)=NC1=C(CCCC(=O)NCCCCCC(=O)NCCCC[C@H](NC(=O)N[C@@H](CCC(=O)O)C(=O)O)C(=O)O)c1[nH]c(C)cc1C is reported as > 1000 nM (Glutamate carboxypeptidase 2 (FOLH1, Homo sapiens, UniProt Q04609); binding, radioligand competition; LNCaP; 2 h, room temperature, added: [177Lu]Lu-PSMA-617).
For COC(=O)[C@@H]1C(c2nc3ccccc3s2)=Cc2cc3c(cc2[C@H]1c1cc(OC)c(OC)c(OC)c1)OCO3, the IC50 was > 20000 nM (Tubulin alpha/beta heterodimer (Leishmania infantum, UniProt A0A381MCS3+A4HTR0); tubulin polymerization, inhibitor; 37 °C, added: tubulin 1.2 mg/mL).
With COc1ccccc1C(=O)Nc1ccc(-c2nc3ccccc3s2)cc1 the IC50 was > 100000 nM (Moesin, with CD44 (Homo sapiens, UniProt P26038); MSN-CD44 interaction, inhibitor, TR-FRET; added: CD44).
COc1cc(Nc2ncnc(-c3cccnc3Nc3cc(NC(=O)c4cccc(C(F)(F)F)c4)ccc3C)n2)cc(OC)c1OC gave an IC50 of 10 ± 3 nM (Tyrosine-protein kinase HCK (HCK, Homo sapiens, UniProt P08631); enzyme activity).
For C=CC(=O)Nc1ccc(-n2nc3c(=O)[nH]nc(N)c3c2-c2oc3ccc(C)cc3c2C)cc1N(C)CCN(C)C, the IC50 was 83.3 ± 11.9 nM (Fibroblast growth factor receptor 1 (FGFR1, Homo sapiens, UniProt P11362); kinase activity, inhibitor, ELISA).
For Oc1cccc(/C=C/c2c[nH]c3ccc(F)cc23)c1, the IC50 was > 20000 nM (Amyloid-beta precursor protein, amyloid-beta peptide (APP, Homo sapiens, UniProt P05067); Aβ42 oligomerisation, ELISA).
For Cc1cc(SCc2sc(-c3ccc(F)cc3)nc2C)ccc1OCC(=O)O, CC50 read “not toxic” (HEK293T; 18 h).
c1cc(-c2nc(-c3ccc4c(c3)OCCCO4)cs2)ccc1-c1csnn1 has an IC50 of 31000 nM (ALK tyrosine kinase receptor (ALK, Homo sapiens, UniProt Q9UM73); ELISA).
COc1ccc(-c2nc(C(F)(F)F)nn2-c2ccc(OC)nc2)cc1 gave an IC50 of 5.1 ± 1.5 nM (Prostaglandin G/H synthase 1 (Macaca mulatta, UniProt F6S984); thromboxane B2 production, inhibitor, enzyme immunoassay; monkey whole blood).
For O=C(OC(C(F)(F)F)C(F)(F)F)N1Cc2cccc(Br)c2C1, the IC50 was 115 ± 1.9 nM (Monoacylglycerol lipase ABHD6 (ABHD6, Homo sapiens, UniProt Q9BV23); inhibitor, fluorescence).
CN(C)c1ccc(C=NN=C2NC(=O)C(CC(=O)Nc3ccc(C(=O)O)cc3)S2)cc1 (centres unmarked) has an IC50 of > 500000 nM (Protein phosphatase 3 catalytic subunit alpha (PPP3CA, Homo sapiens, UniProt Q08209); phosphatase activity, inhibitor, malachite green; added: phosphopeptide substrate at Km).
With COC(=O)[C@@]1(C)C=C(C(=O)Nc2cccc(C(=O)NC34CC(Nc5nccc(-c6cccnc6)n5)(C3)C4)c2)C(=O)CC1 the remaining activity was 1.01 fraction of control (Mitogen-activated protein kinase 8 (MAPK8, Homo sapiens, UniProt P45983); kinase activity, inhibitor; 0.0007527 µM, added: 10 mM GSH).
For O=C1NC(=O)C(=Cc2cn(Cc3ccc4ccccc4c3)c3ccc(Cl)cc23)C(=O)N1, the IC50 was 9000 nM (DNA polymerase eta (POLH, Homo sapiens, UniProt Q9Y253); DNA polymerase activity, inhibitor, fluorescence; added: dTTP 100 µM).
